# Results gathered from unrelated publications.
# Each line is one published result; not all experiments were run side by side. “And” joins repeats or separate records; there may be more than shown. ± gives the spread as reported.
# Chain of UniProt P51617 (whole entry, looked up): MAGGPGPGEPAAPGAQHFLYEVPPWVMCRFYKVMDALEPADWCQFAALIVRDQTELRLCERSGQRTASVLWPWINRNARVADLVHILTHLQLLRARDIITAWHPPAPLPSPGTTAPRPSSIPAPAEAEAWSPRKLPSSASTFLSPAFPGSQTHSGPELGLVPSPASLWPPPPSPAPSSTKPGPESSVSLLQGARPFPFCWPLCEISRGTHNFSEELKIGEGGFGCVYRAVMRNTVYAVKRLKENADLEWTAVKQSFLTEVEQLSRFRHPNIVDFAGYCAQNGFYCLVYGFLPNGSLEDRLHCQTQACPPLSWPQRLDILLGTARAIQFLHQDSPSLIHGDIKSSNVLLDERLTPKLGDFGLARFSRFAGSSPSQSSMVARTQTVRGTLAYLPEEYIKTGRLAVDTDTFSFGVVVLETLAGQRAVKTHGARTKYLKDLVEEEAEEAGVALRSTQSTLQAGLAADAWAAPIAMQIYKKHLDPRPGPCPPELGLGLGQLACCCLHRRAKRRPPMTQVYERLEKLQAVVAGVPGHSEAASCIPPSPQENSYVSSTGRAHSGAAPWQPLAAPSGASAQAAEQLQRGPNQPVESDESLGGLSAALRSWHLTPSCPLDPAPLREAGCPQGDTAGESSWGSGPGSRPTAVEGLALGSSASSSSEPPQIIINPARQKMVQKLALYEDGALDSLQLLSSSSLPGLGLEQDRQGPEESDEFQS
Structure (SMILES),target or system,assay,test system,setting,scale,measurement,result
N=C(N)NCCC[C@@H]1NC(=O)[C@H](CCCNC(=N)N)NC(=O)[C@H](CCCNC(=N)N)NC(=O)[C@H](Cc2ccc3ccccc3c2)NC(=O)[C@H](Cc2ccc3ccccc3c2)NC(=O)[C@H](Cc2ccc3ccccc3c2)NC(=O)[C@H](CCCNC(=N)N)NC1=O,MRC5,"cell growth or viability, MTS",,"150 µg/mL, 24 h",,viability,30 to 35%
CN1CCCNC(=O)c2cccc(c2)C(=O)NCCCN(C)CCCNc2cccc3c2C(=O)c2cccc(c2C3=O)NCCC1,Ca9-22,CCK-8,,"15 µM, 48 h",baseline: untreated,viability,4.11%
N=C(N)NCCC[C@@H]1NC(=O)[C@@H](CCCNC(=N)N)NC(=O)[C@H](CCCNC(=N)N)NC(=O)[C@@H](C(c2ccccc2)c2ccccc2)NC(=O)[C@@H](C(c2ccccc2)c2ccccc2)NC(=O)[C@@H](C(c2ccccc2)c2ccccc2)NC(=O)[C@@H](CCCNC(=N)N)NC1=O,MRC5,"cell growth or viability, MTS",,"150 µg/mL, 24 h",,viability,61 to 70%
O=CCNCCOn1c(=O)n(OCCNCCO)c(=O)n(OCCNCCOn2c(=O)n(OCCNCCO)c(=O)n(OCCNCCO)c2=O)c1=O,HUVEC,"cell growth or viability, MTT",,"100 µg/mL, 72 h",,viability,10.2%
COc1cc(/C=C/C=C2\SC(=S)NC2=O)ccc1O,HEK-293T,CellTiter-Glo,,"5 µM, 24 h, unit not given",baseline: untreated,viability,1.01 and 1.05
O=C(COCC(F)F)Nc1ccc([C@H]2[C@@H](F)[C@@H](F)C[C@@H](F)[C@H]2F)cc1,,hepatocyte stability,cryopreserved rat hepatocytes,1 µM,,hepatic clearance,33 mL/min/kg
N=C(N)NCCC[C@@H]1NC(=O)[C@H](CCCNC(=N)N)NC(=O)[C@@H](CCCNC(=N)N)NC(=O)[C@@H](CCCNC(=N)N)NC(=O)[C@@H](Cc2ccc3ccccc3c2)NC(=O)[C@H](Cc2c[nH]c3ccccc23)NC(=O)[C@@H](Cc2ccc3ccccc3c2)NC1=O,MRC5,"cell growth or viability, MTS",,"200 µg/mL, 24 h",,viability,61 to 65%
C/C=C(/C)C(=O)OC[C@H]1[C@@H](Cc2ccc(OC)c(OC)c2)CO[C@@H]1c1ccc(OC)c(OC)c1,HEK293/NF-κB-luc,CellTracker Green CMFDA,,"20 µM, 4.5 h, serum-free medium",baseline: stimulated untreated cells,viability,87 ± 3%
Nc1ncc(-c2cc(-c3cnn(CC(F)(F)F)c3)ncc2F)nc1C(=O)NC1CNCC(F)C1 (centres unmarked),PKN1,KINOMEscan,,1 µM,baseline: DMSO control,remaining binding,100%
Cc1nn(-c2cccc(N)c2)c(=O)c2cnc(Nc3ccc(N4CCNCC4)cc3)nc12,"IRAK1 (Homo sapiens, UniProt P51617)","enzyme activity, inhibitor",,,,IC50,> 10 µM
O=C(NCCO)c1ccc(C2CCCCC2)cc1,,hepatocyte stability,cryopreserved human hepatocytes,1 µM,,hepatic clearance,17 mL/min/kg
N=C(N)NCCC[C@@H]1NC(=O)[C@H](CCCNC(=N)N)NC(=O)[C@@H](CCCNC(=N)N)NC(=O)[C@@H](CCCNC(=N)N)NC(=O)[C@@H](C(c2ccccc2)c2ccccc2)NC(=O)[C@H](Cc2c[nH]c3ccccc23)NC(=O)[C@@H](C(c2ccccc2)c2ccccc2)NC1=O,MRC5,"cell growth or viability, MTS",,"200 µg/mL, 24 h",,viability,76 to 81%
CC1(C)CC(=O)C2=C(C1)Oc1ccc3ccccc3c1C2c1c[nH]c2ccccc12 (centres unmarked),3T3-L1 mature adipocytes,MTT,,"IC20, 6 days, lipolysis conditions",baseline: untreated,viability,104%
C/C=C(/C)C(=O)OC[C@H]1[C@@H](Cc2ccc(C(C)(C)C)cc2)CO[C@@H]1c1ccc(OC)c(OC)c1,HEK293/NF-κB-luc,CellTracker Green CMFDA,,"20 µM, 4.5 h, serum-free medium",baseline: stimulated untreated cells,viability,68 ± 17%
CC1(F)CN(C(=O)Cn2c(=O)c(C(=O)NCc3ccc(Cl)cc3)cc3nc(N4CCN(CCN)C4=O)cnc32)C1,MRC5,"cell growth or viability, CCK-8",,40 µM,,viability,90%
C=C(NC(=O)c1csc(-c2nc3c(cc2O)-c2nc(cs2)C(=O)NC(C(C)O)C(=O)NC(=C(C)OC)c2nc(cs2)C(=O)NC2c4nc(cs4)C(=O)NC(COC(=O)c4c5c6c(cccc6n4O)COC(=O)C(OC4CC(C)(O)C(N(C)C)C(C)O4)C2OC5)c2nc-3cs2)n1)C(N)=O (centres unmarked),,,"Sprague-Dawley rat, both sexes, plasma","intravenous infusion, 2 mg/kg single dose",,volume of distribution,7.75 L/kg
COc1cc(N2CCN(C(=O)C3CCCN3)CC2)ccc1Nc1ncc(Cl)c(Nc2ccccc2P(C)(C)=O)n1 (centres unmarked),NCI-H3122,"cell growth or viability, CCK-8",,"0.1 µM, 48 h",,viability,24% and 26%
